Assay results of several laboratories.
A part holds a random share of what one study measured.

Block 1
Target: Ras GTPase-activating protein-binding protein 1, full length (G3BP1, Homo sapiens, UniProt Q13283)
Chain of UniProt Q13283 (whole entry, looked up): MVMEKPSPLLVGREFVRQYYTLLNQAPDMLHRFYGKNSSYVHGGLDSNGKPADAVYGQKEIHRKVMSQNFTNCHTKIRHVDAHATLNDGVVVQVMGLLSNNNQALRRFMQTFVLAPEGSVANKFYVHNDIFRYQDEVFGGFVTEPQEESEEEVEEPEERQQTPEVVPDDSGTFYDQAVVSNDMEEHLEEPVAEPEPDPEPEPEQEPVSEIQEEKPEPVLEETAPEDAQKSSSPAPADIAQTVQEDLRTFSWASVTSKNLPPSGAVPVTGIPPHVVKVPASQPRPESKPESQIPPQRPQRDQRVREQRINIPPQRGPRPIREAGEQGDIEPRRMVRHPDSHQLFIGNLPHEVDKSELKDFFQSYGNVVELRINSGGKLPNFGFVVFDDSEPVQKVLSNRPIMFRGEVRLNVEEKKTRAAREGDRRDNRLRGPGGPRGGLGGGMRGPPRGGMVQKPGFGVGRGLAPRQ
Technique: RNA Bind-n-Seq
Molecule type: RNA
Medium: in vitro
Concentration: 200 nM
Notes: whole 134-nt RNA, ends assumed
Together with: 150 mM LiCl
Reference: input library
Direction: higher = stronger binding
Measurement: log2 enrichment
Library: 7-deaza-guanosine replaces G
All sequences stand within: GGGAGUUCUACAGUCCGACGAUC … UGGAAUUCUCGGGUGUCAAGG
Sequence = AGUCCUGUGCUACACAUCGUAUGUACCGAAUCGGGUUUUUUUGGGAAAAAGGGUGGGAAAGUAUUAUGUUACGCCGUUCGGAUCUGCACU; value = -1.91
Sequence = AGUCCUGUGCUACACAUCGUAUGUACCGAAUCGGUUUUUGGAAAAAAAGGUUUUUGGAAAGUAUUAUGUUACGCCGUUCGGAUCUGCACU; value = -3.16
Sequence = AGUCCUGUGCUACACAUCGUAUGUACCGAAUCAAAUUUUUAAACCCCCAAACCCAAAAAAGUAUUAUGUUACGCCGUUCGGAUCUGCACU; value = 1.33
Sequence = UCCUCAAGUCCUGUGCUACACAUCGUAUGUACCGAAUCGGGGUGGUGGUGGGAAAGUAUUAUGUUACGCCGUUCGGAUCUGCACUUCCAG; value = 0.101
Sequence = UCAAGUCCUGUGCUACACAUCGUAUGUACCGAAUCGGGUUUGGUUUGGUUUGGGGAAAGUAUUAUGUUACGCCGUUCGGAUCUGCACUUC; value = -0.428
Sequence = UCCUGUGCUACACAUCGUAUGUACCGAAUCGGGUUUUUGGGUUUUUUUGGGAAAAAGGGAAAGUAUUAUGUUACGCCGUUCGGAUCUGCA; value = 0.138
Sequence = UAACUUAAGAGGAGGAUCUGAUGGAUAUGGCAGUGGACGUGGAUUUGGGGAUGGCUAUAAUGGGUAUGGAGGAGGACCUGGAGGUGGCAA; value = 0.0962
Sequence = CUCAAGUCCUGUGCUACACAUCGUAUGUACCGAAUCGGUUUGGUUUGGUUUGGGAAAGUAUUAUGUUACGCCGUUCGGAUCUGCACUUCC; value = 0.0168

Block 2
Target: RNA binding protein fox-1 homolog 2, RRM domain, GST-SBP tag (RBFOX2, Homo sapiens, UniProt O43251-10, residues 100-194)
Technique: RNA Bind-n-Seq
Molecule type: RNA
Medium: in vitro
Concentration: 365 nM
Notes: natural RNA segment, single round, ends assumed
Reference: no-protein control
Direction: higher = stronger binding
Measurement: RBNS enrichment (R)
All sequences stand within: GGGAGUUCUACAGUCCGACGAUC … UGGAAUUCUCGGGUGCCAA
Construct (chain): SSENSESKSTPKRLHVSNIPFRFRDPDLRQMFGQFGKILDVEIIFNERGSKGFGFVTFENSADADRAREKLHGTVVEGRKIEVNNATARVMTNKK
Sequence = GGGGACAAAGCAAAAAGUGAUGAUAGUGGUGGAGUUAAUCUUAUCAAGAGUUGUGACAACUUCCUGAGGGAUCUAUACUUGCUUUGUGUUCUUUGUGUCAACAUGAACAA; value = 0.492
Sequence = GCUGUUGUCUGUGCCCCAGAGGUGCUACCUGUAGACAGGGACCAACUCCAUGUGUGUGUGUUAAGUGUUUGACUCCAAUUAAGACUCCCAAGCAAAUCCUGCAUAUUCCA; value = 0.546
Sequence = GAGGGUUAUUUGCUUUUUUAUCUUCCUGGCAUAAUUUCCAUUUUAUUCUUCUGAGUGUCUAUGUUAACUUCCCUCUAUCCCGCUUAUAAAAAAAUUCUCCAACAAAAAUA; value = 0.647
Sequence = GCAGUAGCAUCCCAUUUGUACCAAAACAGUGUUCUUGCUCUAUAAACCGUGUUAGCAGCUCAGGAAGAUGCCGUGAAGCAUUCUUAUUAAACCACCUGCUAUUUCAUUCA; value = 0.626
Sequence = AAUGACUUGGAAGAACUGGGGCACAGCCAGUCCCAGACACUGGUGGAGGCUGCAGUGACUUUUUUUGGCUCAAGAUCCACAAGCAUUAGAGUAGACUGGGCCAACAAGUC; value = 0.613
Sequence = AGACUUGUUACAUAGAGGGAAAAUGGACUGGGAUAGAGGACAGACUGAUAGUUUCUUUCUUUCAUAUCACAUGUAUAGAGAAAUAAUUAUAUCAGAAACUCACAAACCUA; value = 0.587
Sequence = GACUCACCUUCACACGUGAGACUUCGCUCUUACCCCAGCCCCCACCGCUGGAGGGGUUUCAAUCCCCCACCCUGGGGCUCUUCUGCGCAGAAGCUGAAGUCUACGCUCCU; value = 0.194
Sequence = AUCGGGAGGGGAGCAGUAGCACUAUGGGAGGGAGAGAGGCCUUCCAUAGCCUCCUCCCCAGGACCUGUGCUCCCAGCUUCUGCAGAGACCCCAGCAACUUUCCCUCCAAG; value = 0.312

Block 3
Target: Histone acetyltransferase KAT6A, both winged helices, GST fusion (KAT6A, Homo sapiens, UniProt Q92794, residues 1-181)
Technique: protein binding microarray
Molecule type: double-stranded DNA, one strand shown
Medium: in vitro
Concentration: not given
Notes: 8-mer, flanks averaged, mean of 2 arrays, mostly near background
Reference: not given
Direction: higher = stronger binding
Measurement: E-score
Residues (chain): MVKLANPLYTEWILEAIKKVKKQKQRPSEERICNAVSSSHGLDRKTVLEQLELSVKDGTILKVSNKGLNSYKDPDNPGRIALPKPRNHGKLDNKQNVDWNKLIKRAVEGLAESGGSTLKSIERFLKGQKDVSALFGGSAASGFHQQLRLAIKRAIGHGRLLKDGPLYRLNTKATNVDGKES
Sequence = AAAGGATC; value = -0.0635
Sequence = CTCCCACC; value = -0.177
Sequence = GCAATCGA; value = 0.019
Sequence = GCGACGAC; value = 0.0526
Sequence = CGAGACGC; value = 0.174
Sequence = GACTCGGA; value = 0.0524
Sequence = AGTGCGGG; value = 0.12
Sequence = CACAATAA; value = -0.197
Sequence = GCTTCCCA; value = 0.104
Sequence = AGCACTGA; value = -0.243
Sequence = ATTGGTAC; value = -0.0757
Sequence = GGGCTTCA; value = -0.000955
Sequence = AAGCTGAC; value = -0.0972
Sequence = AATGGACG; value = 0.185
Sequence = CGAGACCA; value = -0.15
Sequence = GTATAAGA; value = -0.168
Sequence = TACTCGCA; value = 0.0941
Sequence = TGAACGAA; value = -0.195
Sequence = CAACTACC; value = -0.136
Sequence = GAACTAGC; value = 0.1
Sequence = AGTATCAC; value = -0.0492
Sequence = CAATATGG; value = -0.163
Sequence = AGGTAAAA; value = -0.121
Sequence = CATGTTGC; value = 0.0958
Sequence = CGGCCCCA; value = 0.0633

Block 4
Target: Interferon regulatory factor 5, full length, phosphomimetic (IRF5, Homo sapiens, UniProt Q13568-2, residues 1-514, K96S/S451D/S453D/S456D/S462D)
Technique: protein-binding microarray
Molecule type: double-stranded DNA, one strand shown
Medium: in vitro
Concentration: 250 nM
Notes: 60-bp whole probe
Together with: salmon DNA 0.4 mg/ml
Reference: random background probes
Direction: higher = stronger binding
Measurement: log fluorescence
All sequences stand within: GCCTAGCAC … GTCTTGATTCGCTTGACGCTGCTG
Sequence = TCATATTTGTCCCTATTACTGTGCTAG; value = 0.763 z-score
Sequence = TCAACTCTGCCTCTAACACTGTGCTAG; value = 0.0944 z-score
Sequence = GACGGACTGGCCTTTCGGGACGTGCTA; value = 0.617 z-score
Sequence = GACGAACTGGGGTATCGGGACGTGCTA; value = 0.393 z-score
Sequence = TCATCTAAAAAGTCTCTGACTGTGCTA; value = 0.551 z-score
Sequence = TTAGGTTTCGACACTCGGTTAGTGCTA; value = 5.7 z-score
Sequence = ATTTAAAACAACTTTCAAAGGGTGCTA; value = 0.692 z-score
Sequence = TTAGAACTGAGACGGGATTAGTGCTAG; value = -0.404 z-score
Sequence = TCAACTCTGAACCTTCAGACTGTGCTA; value = -0.0611 z-score
Sequence = TCAACTCAGCACTTTGGCACTGTGCTA; value = -0.185 z-score
Sequence = GACGGACTGGGGATTGGGGACGTGCTA; value = -0.35 z-score
Sequence = TTAGGATTGGACACTGGGTTAGTGCTA; value = -0.178 z-score
Sequence = TCATACATGAGTTTAGAACTGTGCTAG; value = 0.204 z-score
Sequence = TCAAATCTCTCTTCACAACTGTGCTAG; value = 0.738 z-score
Sequence = TTAGGACTGGACTTCCGGTTAGTGCTA; value = 0.568 z-score
Sequence = TGAGGACTGGGTATCGGTTAGTGCTAG; value = 4.13 z-score
Sequence = TCTCTTTCCTTACTTCCCAATGTGCTA; value = 1.94 z-score

Repeated from above (block 2):
Sequence = GGGGACAAAGCAAAAAGUGAUGAUAGUGGUGGAGUUAAUCUUAUCAAGAGUUGUGACAACUUCCUGAGGGAUCUAUACUUGCUUUGUGUUCUUUGUGUCAACAUGAACAA; value = 0.492
Sequence = AUCGGGAGGGGAGCAGUAGCACUAUGGGAGGGAGAGAGGCCUUCCAUAGCCUCCUCCCCAGGACCUGUGCUCCCAGCUUCUGCAGAGACCCCAGCAACUUUCCCUCCAAG; value = 0.312
Sequence = AGACUUGUUACAUAGAGGGAAAAUGGACUGGGAUAGAGGACAGACUGAUAGUUUCUUUCUUUCAUAUCACAUGUAUAGAGAAAUAAUUAUAUCAGAAACUCACAAACCUA; value = 0.587
Sequence = AAUGACUUGGAAGAACUGGGGCACAGCCAGUCCCAGACACUGGUGGAGGCUGCAGUGACUUUUUUUGGCUCAAGAUCCACAAGCAUUAGAGUAGACUGGGCCAACAAGUC; value = 0.613
Sequence = GACUCACCUUCACACGUGAGACUUCGCUCUUACCCCAGCCCCCACCGCUGGAGGGGUUUCAAUCCCCCACCCUGGGGCUCUUCUGCGCAGAAGCUGAAGUCUACGCUCCU; value = 0.194
Sequence = GCUGUUGUCUGUGCCCCAGAGGUGCUACCUGUAGACAGGGACCAACUCCAUGUGUGUGUGUUAAGUGUUUGACUCCAAUUAAGACUCCCAAGCAAAUCCUGCAUAUUCCA; value = 0.546
Sequence = GCAGUAGCAUCCCAUUUGUACCAAAACAGUGUUCUUGCUCUAUAAACCGUGUUAGCAGCUCAGGAAGAUGCCGUGAAGCAUUCUUAUUAAACCACCUGCUAUUUCAUUCA; value = 0.626
Sequence = GAGGGUUAUUUGCUUUUUUAUCUUCCUGGCAUAAUUUCCAUUUUAUUCUUCUGAGUGUCUAUGUUAACUUCCCUCUAUCCCGCUUAUAAAAAAAUUCUCCAACAAAAAUA; value = 0.647
